Measured values pooled from the literature.
Lines come from different studies, so protocols differ. “And” joins repeats or separate records; there may be more than shown. Numbers after ± are the reported error.

SMILES = CC#Cc1cncc(-c2ccc3c(c2)[C@@]2(N=C(C)C(N)=N2)[C@]2(CC[C@H](OC)CC2)C3)c1; test = brain Aβ40 reduction, PK/PD model; test system = C57BL/6 mouse; conditions = oral, free brain concentration basis; endpoint = IC50; result = 0.6 nM
SMILES = C=CCn1c(=O)c2cnc(Nc3ccc(N4CCN(C)CC4)cc3)nc2n1-c1ccc2c(n1)[C@@](O)(CC)CC2; test system = Calu-6 xenograft, BALB/c nude mice; conditions = oral, 80 mg/kg once daily x 26, day 21; endpoint = tumour volume difference; result = 1140 ± 43.4 mm3
SMILES = C[C@H](Oc1ccc(Br)cc1-c1ccon1)C(=O)O; test = last response latency; test system = human, tibialis anterior muscle; conditions = 200 mg, 15 Hz, SAD; endpoint = difference from placebo; result = 0.455%
SMILES = Cc1noc(C)c1-c1cc(C(O)(c2ccccn2)c2ccccn2)c2nc(C3CC3)[nH]c2c1; test = item: CCR2 expression; test system = human, peripheral blood; conditions = 4 mg, day 1, 1604 study; endpoint = maximum inhibition; result = 21%
SMILES = N#CC[C@H](C1CCCC1)n1cc(-c2ncnc3[nH]ccc23)cn1; test system = Balb/c mice, oxazolone atopic dermatitis; conditions = day 14, unit not given; scale = relative to: vehicle; endpoint = ear thickness difference; result = -0.214
SMILES = COc1ccc(-c2cncc(N[C@@H](C)c3cccc(NC(=O)c4cncc(C)c4)c3)n2)cc1OC; test = item: rno-miR-32-5p; test system = rat SU5416/hypoxia model, lung; conditions = dose not given; scale = relative to: SU5416/hypoxia vehicle; endpoint = fold change; result = 0.502
SMILES = C[C@@H](NC(=O)N1C(=O)[C@H](Cc2ccnc(N)c2)[C@H]1C(=O)O)C1CCCCC1; test system = human; conditions = iv infusion, 0.6 mg/kg/h, 24 h; scale = relative to: baseline; endpoint = time to aPTT Emax; result = 48 h
SMILES = O=C1Nc2ccccc2C1=Cc1ccccn1; test = ferric chloride carotid thrombosis; test system = rat; conditions = oral, 2.8 mg/kg, 2 h before thrombosis; endpoint = occlusion time prolongation; result = 22.4%
SMILES = COc1ccccc1[C@H](Cn1c(=O)n(C(C)(C)C(=O)O)c(=O)c2c(C)c(-c3ncco3)sc21)OC1CCOCC1; test = [1-13C]acetate infusion, isotopomer analysis; test system = overweight or obese healthy men, plasma VLDL-TG palmitate; conditions = oral, 50 mg single dose, 3 h post-dose, added: oral fructose; endpoint = fractional hepatic DNL; result = 5.32 % new palmitate
SMILES = C[C@@H]1CCC[C@H](n2cnc(-c3cc(Cl)ccc3-n3cc(Cl)nn3)cc2=O)c2cc(ccn2)-c2c(cnn2C(F)F)NC1=O; test system = pooled normal human plasma; conditions = IC1.2× aPTT, STA-PTT reagent; endpoint = concentration for aPTT prolongation; result = 90 nM
SMILES = Cn1nnc2c(C(N)=O)ncn2c1=O; test = cleaved caspase-3 staining; test system = mouse PDGFB-driven RCAS/tv-a glioma model; conditions = dose not given, end stage; endpoint = apoptotic cells; result = no effect
SMILES = CSCCNc1nc(SCCC(F)(F)F)nc2c1ncn2[C@@H]1O[C@H](COP(=O)(O)OP(=O)(O)C(Cl)(Cl)P(=O)(O)O)[C@@H](O)[C@H]1O; test = ADP-induced platelet aggregation, LTA; test system = human patients, platelet-rich plasma; conditions = dose not given, 4 to 6 h, added: ADP 5 µM; endpoint = inhibition; result = 28 ± 25.7%
SMILES = Cn1cc([C@H]2C[C@H]3CSC(N)=N[C@@]3(c3ccc(F)cc3F)CO2)cn1; test = item: Aβx-40; test system = Mus musculus wild-type, cerebrospinal fluid; conditions = subcutaneous, 10 mg/kg, 18 h; endpoint = Aβ40 level; result = 2 ng/mL
SMILES = Cc1ccc(C(=O)OCc2ccc([C@@H](CN)C(=O)Nc3ccc4cnccc4c3)cc2)c(C)c1; test = tonometry; test system = NZW rabbit, magnetic bead-induced ocular hypertension; conditions = ocular, 0.02%, 26 h; endpoint = IOP; result = 34.9 mmHg
SMILES = CCOc1c([C@H](C)n2nc(C)c3c(N)ncnc32)cc(Cl)c(F)c1[C@@H]1CNC(=O)C1; test = Olink proximity extension proteomics, item: CD160; test system = human FL or MZL patients, plasma; conditions = dose not given, week 8; scale = relative to: baseline; endpoint = plasma protein level change; result = -38%
SMILES = N#Cc1ccn2c(-c3ccncc3)c(-c3ccc(F)cc3)nc2c1; test = kinase binding, competitor, MIB/MS competition, item: PKH2; test system = Candida albicans cell lysate; conditions = 10 µM; scale = relative to: DMSO; endpoint = log2 fold change; result = -0.41
SMILES = NC(=O)c1cnc2[nH]ccc2c1N[C@@H]1[C@@H]2CC3C[C@H]1C[C@@](O)(C3)C2; test = flow cytometry, item: CD8+ memory T cells; test system = Japanese healthy subjects, peripheral blood; conditions = oral, 100 mg twice daily, day 7; endpoint = change from baseline; result = 0.53%
SMILES = CCOc1cc([C@@H](CS(C)(=O)=O)N2C(=O)c3cccc(NC(C)=O)c3C2=O)ccc1OC; test system = Balb/c mice, oxazolone atopic dermatitis; conditions = day 23, unit not given; scale = relative to: vehicle; endpoint = ear thickness difference; result = -0.158
SMILES = COC(=O)c1cc(O)c(O)c(O)c1; test = glucuronidation kinetics; test system = Wistar rat liver microsomes; endpoint = substrate inhibition constant; result = 54.9 ± 32.9 µM
SMILES = O=C(OC(C(F)(F)F)C(F)(F)F)N1CCN(Cc2cccc(Oc3ccccc3)c2)CC1; test = PET blocking study; test system = rhesus monkey, brain CB; conditions = 0.03 mg/kg, compound pretreatment, added: [18F]T-401 tracer; endpoint = k3; result = 0.039 min⁻¹
SMILES = Cc1n[nH]c2ccc(-c3cc(OC[C@@H](N)Cc4ccccc4)cnc3-c3ccoc3)cc12; test = kinase binding, competitor, MIB/MS competition, item: AKL1; test system = Candida albicans cell lysate; conditions = 10 µM; scale = relative to: DMSO; endpoint = log2 fold change; result = -5.4
SMILES = N=C(N)NCCC[C@H](NC(=O)[C@H](CCCNC(=N)N)NC(=O)[C@H](CCCCN)NC(=O)[C@H](CCC(N)=O)NC(=O)[C@H](CCCCN)NC(=O)[C@H](Cc1ccc(O)cc1)NC(=O)[C@@H](N)CCCCN)C(=O)N[C@@H](CO)C(=O)N[C@@H](Cc1ccc(O)cc1)C(=O)N[C@@H](CCCCN)C(=O)O; test = air evaporative stimulus; test system = dentin hypersensitivity patients; conditions = 5 µg/tooth single, day 22, phase 1/2a; scale = relative to: baseline, direction not given; endpoint = Schiff sensitivity score change; result = -0.67 ± 0.82
SMILES = C[C@H]1C[C@H]2CSC(N)=N[C@@]2(c2nc(NC(=O)c3ccc(OC(F)F)cn3)cs2)CO1; test = item: Aβ1-40; test system = healthy adults, plasma; conditions = 12 mg single dose, 48 h post-dose; scale = relative to: placebo; endpoint = percent change from baseline; result = -53.3%
SMILES = COc1cc(C)c(Sc2cnc(NC(=O)c3ccc(N4CCN(CCCCCCCNC(=O)COc5cccc6c5C(=O)N(C5CCC(=O)NC5=O)C6=O)CC4)cc3)s2)cc1C(=O)N1CCN(C(C)=O)CC1 (stereo not drawn); test = item: GATA-3; test system = HuT78 xenograft, NSG mouse, tumour; conditions = intraperitoneal, 50 mg/kg every 8 h; endpoint = protein level reduction; result = > 90%
SMILES = COc1cc(Nc2ncc3c(n2)-c2ccc(Cl)cc2C(c2c(F)cccc2OC)=NC3)ccc1C(=O)O; test system = female NOD/scid mice, ALL-8 T-cell ALL xenograft; conditions = 10.4 mg/kg, 5 days weekly, score scale 0 to 10; scale = direction not given; endpoint = median response score; result = 8
SMILES = N#Cc1ccc2c(c1)[C@H]1CCCN(C(=O)c3ccc4[nH]cnc4c3)[C@H]1C2; test system = human clinical trial; conditions = oral, 240 mg once daily, 28 d; endpoint = HOMA-beta change; result = -1.4%
SMILES = O=C1Nc2cc3[nH]nc(-c4ccncc4)c3cc2CN1Cc1ccccc1; test = RECIST v1.1; test system = human, relapsed or refractory advanced solid tumours; conditions = intravenous, 9.6 mg/kg, pooled schedules; endpoint = progressive disease, best response; result = 78%
SMILES = C[C@@H](O)CCOC(=O)C[C@@H](C)O; test = item: C10:1 acylcarnitine; test system = human, plasma; conditions = 60 min, log2-transformed values; endpoint = metabolite level; result = -3.37 ± 0.78 µmol/L
SMILES = Cn1cc(Nc2nccc(-c3ccc4c(c3)CN(C3COC3)CC[C@H]4NC(=O)c3cn(C(C)(C)C)nn3)n2)cn1; test = item: glutathione redox reactions I; test system = splenic B cells, mice; conditions = 30 mg/kg, IgD-activated in vivo; scale = relative to: vehicle, direction not given; endpoint = pathway activation z-score; result = 1.13
SMILES = CC(C)NCC(O)c1ccc(O)c(O)c1 (stereo not drawn); test system = ventricular cardiomyocytes, C57BL/6 mouse; conditions = dose not given, 0.632 s; endpoint = sarcomere length; result = 1.72 µm
SMILES = CN[C@@H]1COc2c(S(=O)(=O)NC(=O)Nc3c4c(cc5c3CCC5)CCC4)cnn2C1; test = item: IL-1β; test system = human participants, whole blood ex vivo; conditions = 150 mg single dose, 8 h, added: LPS/ATP; scale = relative to: baseline; endpoint = inhibition; result = 97.1%
SMILES = COc1ncc(-c2nc3c(n2C(C)C)[C@H](c2ccc(Cl)cc2)N(c2cc(Cl)cn(C)c2=O)C3=O)c(OC)n1; test = International Working Group criteria; test system = human acute myeloid leukemia patients; conditions = oral, 150 mg, response Unknown, high-dose, other doses; endpoint = best overall response; result = 0%
SMILES = OC(CCN1CCCCC1)(c1ccccc1)C1CC2C=CC1C2 (stereo not drawn); test = resting-state EEG; test system = healthy elderly humans; conditions = oral, 4 mg, eyes open, LS mean; endpoint = EEG Beta1-power Fz-Cz; result = 2.8 µV²
SMILES = CC(C)C[C@@H](C=O)NC(=O)[C@H](CC(C)C)NC(=O)[C@H](CC(C)C)NC(=O)OCc1ccccc1; test = item: Ub(G76V)-GFP; conditions = 0.156 µM; endpoint = degradation rate constant; result = 0.0197 min⁻¹
SMILES = N#Cc1ccc(Oc2ccc3c(c2)COB3O)cc1; test system = Balb/c mice, oxazolone atopic dermatitis; conditions = day 17, unit not given; scale = relative to: vehicle; endpoint = ear thickness difference; result = -0.219
SMILES = C[C@H]1O[C@@H](O[C@H]2CC[C@@]3(C)[C@@H](CC[C@]4(C)[C@@H]3C=C[C@]35OC[C@@]6(CCC(C)(C)C[C@H]63)[C@@H](O)C[C@]54C)[C@]2(C)CO)[C@H](O)[C@@H](O[C@@H]2O[C@H](CO)[C@@H](O)[C@H](O)[C@H]2O)[C@H]1O; test system = Mus musculus, chronic-plus-binge ethanol-fed, liver; conditions = oral, 5 mg/kg/day, 168 h, dosed for 7 days; endpoint = hepatic total cholesterol; result = 0.151 mmol/g protein and 0.149 mmol/g protein and 0.154 mmol/g protein and 0.166 mmol/g protein and 0.173 mmol/g protein
SMILES = N#Cc1ccc2c(-c3ccncc3)c(-c3ccc(F)cc3)nn2c1; test = kinase binding, competitor, MIB/MS competition, item: HRK1; test system = Candida albicans cell lysate; conditions = 100 nM; scale = relative to: DMSO; endpoint = log2 fold change; result = 0.429
SMILES = COC(=O)[C@H](CC(C)C)NC(=O)[C@@H](O)[C@H](N)Cc1ccccc1; test = protease activity; test system = HEK-293T cell lysate; conditions = 10 µM, added: XP-AMC 500 µM; endpoint = cleavage inhibition; result = no inhibition
SMILES = CCCCOc1nc(N)c2c(n1)N(Cc1cccc(CN3CCCC3)c1)CC(=O)N2; test = qPCR; test system = human, blood; conditions = dose not given, three dosing periods; scale = relative to: baseline; endpoint = ISG15 mRNA level; result = increased
SMILES = CC[C@@H]1[C@H](F)C(=O)N[C@@H]1COc1nccc2cc(C(N)=O)c(OC)cc12; test = ATP-site probe binding, ActivX profiling, item: MARK2, MARK3; test system = THP-1 cell lysate; conditions = 0.04 mM, Lys2 site; endpoint = inhibition; result = -13.3%
SMILES = c1ccc(-c2n[nH]cc2-c2ccnc3ccccc23)nc1; test = kinase binding, competitor, MIB/MS competition, item: AKL1; test system = Candida albicans cell lysate; conditions = 1 µM; scale = relative to: DMSO; endpoint = log2 fold change; result = 1.28
SMILES = CCCCCCCCCCCCCCCC(=O)N[C@@H](CCC(=O)NCCCC[C@H](NC(=O)[C@H](C)NC(=O)[C@H](C)NC(=O)[C@H](CCC(N)=O)NC(=O)CNC(=O)[C@H](CCC(=O)O)NC(=O)[C@H](CC(C)C)NC(=O)[C@H](Cc1ccc(O)cc1)NC(=O)[C@H](CO)NC(=O)[C@H](CO)NC(=O)[C@@H](NC(=O)[C@H](CC(=O)O)NC(=O)[C@H](CO)NC(=O)[C@@H](NC(=O)[C@H](Cc1ccccc1)NC(=O)[C@@H](NC(=O)CNC(=O)[C@H](CCC(=O)O)NC(=O)[C@H](C)NC(=O)[C@@H](N)Cc1c[nH]cn1)[C@@H](C)O)[C@@H](C)O)C(C)C)C(=O)N[C@@H](CCC(=O)O)C(=O)N[C@@H](Cc1ccccc1)C(=O)N[C@H](C(=O)N[C@@H](C)C(=O)N[C@@H](Cc1c[nH]c2ccccc12)C(=O)N[C@@H](CC(C)C)C(=O)N[C@H](C(=O)N[C@@H](CCCNC(=N)N)C(=O)NCC(=O)N[C@@H](CCCNC(=N)N)C(=O)NCC(=O)O)C(C)C)[C@@H](C)CC)C(=O)O; test = spout contacts; test system = Sprague-Dawley rat, saline self-administering; conditions = subcutaneous, 0.3 mg/kg, hour 1, dosed six hours before test, extinction test 1; endpoint = cue-induced heroin seeking; result = no effect
SMILES = Cc1cnc(N2CC3(CCOCC3)C2)c(C(=O)Nc2ccc(C(=O)N3CCc4cc(C(=O)Nc5c(C)cccc5F)sc4-c4ccccc43)cc2)c1; test system = human, RSV infection, nasal wash; conditions = dose not given, ITT-IS population; scale = relative to: placebo; endpoint = inhibition of MPO AUC; result = -20%
SMILES = CC(=O)Oc1cc2c(s1)CCN(C(C(=O)C1CC1)c1ccccc1F)C2 (stereo not drawn); test = platelet aggregation, light transmittance aggregometry; test system = human, platelet-rich plasma; conditions = 15 min, IPA above 80 %, added: TRAP 5 µM; scale = relative to: patients; endpoint = patients with IPA above threshold; result = 0%
SMILES = O=C(O)CNC(=O)Cc1ccccc1; test system = ventricular cardiomyocytes, C57BL/6 mouse; conditions = dose not given, 0.432 s; endpoint = sarcomere length; result = 1.72 µm
